Measured values from different studies.
Parts stem from different laboratories: compare values within a part only.

Study 1 — mode: inhibitor; tested at: 20 µM
Target: Replicase polyprotein 1ab, nsp13 helicase (rep, Severe acute respiratory syndrome coronavirus 2, UniProt P0DTD1)
SMILES	inhibition [%]
Cc1nc2c(O)cccc2c(=O)[nH]1	-2.38
CCOP(=S)(OCC)Oc1nc(Cl)c(Cl)cc1Cl	3.43
Cc1c(OCC(F)(F)F)ccnc1C[S+]([O-])c1nc2ccccc2[nH]1 (centres unmarked)	3.92
O=C[C@H](F)[C@@H](O)[C@@H](O)[C@H](O)CO	4.92
NC(=O)c1nc(F)cnc1O	-2.68
C[C@H](Cc1ccc(OCC(=O)O)cc1)NC[C@H](O)c1cccc(Cl)c1	1.63
CC(C)CCNc1ncccc1C(=O)N1CCN(Cc2ccccc2)CC1	6.82
Cn1ncnc1COc1nn2c(-c3c(F)cccc3F)nnc2cc1C1CCC1	-3.25
Nc1ccc(C(=O)O)c(O)c1	10.1
CN1C(=O)CCS(=O)(=O)C1c1ccc(Cl)cc1 (centres unmarked)	5.96
CC(C)(C)CCN1C[C@@H]2C(CNC(=O)c3cc(Cl)cc(Cl)c3)[C@@H]2C1 (some centres unmarked)	7.42
FC(F)OC(F)(F)C(F)Cl (centres unmarked)	3.24
C[C@@H]1C[C@H]2[C@@H]3C[C@H](F)C4=CC(=O)C=C[C@]4(C)[C@@]3(Cl)[C@@H](O)C[C@]2(C)[C@H]1C(=O)COC(=O)C(C)(C)C	4.45
C[C@@H]1C/C=C/C=C/C=C/C=C/[C@H](O[C@@H]2O[C@H](C)[C@@H](O)[C@H](N)[C@@H]2O)C[C@@H]2O[C@](O)(C[C@@H](O)C[C@H]3O[C@@H]3/C=C/C(=O)O1)C[C@H](O)[C@H]2C(=O)O	9.87
CCC(=O)O[C@@H]1CC(=O)O[C@H](C)C/C=C/C=C/[C@H](OC(C)=O)[C@H](C)C[C@H](CC=O)[C@H](O[C@@H]2O[C@H](C)[C@@H](O[C@H]3C[C@@](C)(OC(C)=O)[C@@H](OC(=O)CC)[C@H](C)O3)[C@H](N(C)C)[C@H]2O)[C@H]1OC	1.5
CN(C)CCC(c1ccccc1)c1ccccn1 (centres unmarked)	2.94
CCCN[C@@H]1CCc2c(OC)cccc2[C@@H]1C	-3.33
CCN(C(=O)c1c(O)c2c(Cl)cccc2n(C)c1=O)c1ccccc1	2.41
O=P(O)(O)C(O)(Cc1cnc2ccccn12)P(=O)(O)O	-6.05
Cc1cccc(-c2nn3c(c2-c2ccnc4ccc(C(N)=O)cc24)CCC3)n1	1.9
COc1ccc2c(O[C@@H]3C[C@H]4C(=O)N[C@]5(C(=O)NS(=O)(=O)C6CC6)C[C@H]5/C=C\CCCCN(C)C(=O)[C@@H]4C3)cc(-c3nc(C(C)C)cs3)nc2c1C	2.08
CCOC(=O)NNc1ccc(N(CC)CC(C)O)nn1 (centres unmarked)	8.38
CC(=O)O[C@@H]1CC[C@@]2(C)[C@@H](CC[C@]3(C)[C@@H]2C(=O)C=C2[C@@H]4[C@@H](C)[C@H](C)CC[C@]4(C)CC[C@]23C)[C@@]1(C)C(=O)O	-2

Study 2 — technique: protein binding microarray; molecule type: double-stranded DNA, one strand shown; medium: in vitro; tested at: not given; baseline: not given; direction: higher = stronger binding
Target: Histone acetyltransferase KAT6A, winged helix 1, GST fusion (KAT6A, Homo sapiens, UniProt Q92794, residues 1-85)
Notes: 8-mer, flanks averaged, mean of 2 arrays, mostly near background
Construct (chain): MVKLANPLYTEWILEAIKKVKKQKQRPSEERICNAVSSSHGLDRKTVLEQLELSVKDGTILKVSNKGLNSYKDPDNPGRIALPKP
Sequence	E-score
CTCAAGAG	-0.272
CAATCGCA	0.0481
TACAGAAA	-0.147
GTGCGGTA	0.34
GGGCGGAC	0.298
CCCCCGCA	0.227
AGTGGACA	-0.0834
AATATGTG	-0.131

Study 3 — cell line: HEK-293T; effect on: pseudovirus infection; technique: FDA-approved drug library screen; organism: VSV pseudotyped with SARS-CoV-2 spike; tested at: 10 µM; time: 16 h; baseline: vehicle-treated
Compound	GFP-positive cells
OC(CNCC(O)C1CCc2cc(F)ccc2O1)C1CCc2cc(F)ccc2O1 (centres unmarked)	59.2%
C[C@]12C=CC(=O)C=C1CC[C@@H]1[C@@H]2C(=O)C[C@@]2(C)[C@H]1CC[C@]2(O)C(=O)CO	85.3%
C[C@]12CC[C@H]3[C@@H](CC[C@@]45O[C@@H]4C(O)=C(C#N)C[C@]35C)[C@@H]1CC[C@@H]2O	74.2%
CC[C@H](C)C(=O)O[C@H]1C[C@@H](C)C=C2C=C[C@H](C)[C@H](CC[C@@H]3C[C@@H](O)CC(=O)O3)[C@H]21	78.5%
Nc1ncnc2c1ncn2[C@@H]1O[C@H](CO)[C@@H](O)[C@H]1O	72.2%

Study 4 — effect on: enzyme activity; mode: inhibitor; tested at: 20 µM; notes: hit confirmation, with DTT
Target: Replicase polyprotein 1ab, main protease (rep, Severe acute respiratory syndrome coronavirus 2, UniProt P0DTD1)
Structure (SMILES)	inhibition
COc1cc(N(C)C)cc(CN(C)CCc2ccc([N+](=O)[O-])cc2)c1O	90.8%
C[C@@H]1O[C@@H](Oc2c(-c3cc(O)c(O)c(O)c3)oc3cc(O)cc(O)c3c2=O)[C@@H](O)[C@H](O)[C@H]1O	-10.3%
C[C@H](NC(=O)/C(C#N)=C/c1cccc(Br)n1)c1ccccc1	14.5%

Study 5 — technique: universal PBM; molecule type: double-stranded DNA, one strand shown; medium: in vitro; tested at: not given; direction: higher = stronger binding
Target: Sal-like protein 4, full length isoform B (SALL4, Homo sapiens, UniProt Q9UJQ4-2, residues 1-616)
Notes: 8-mer, flanks averaged, mean of replicates
Sequence	E-score
CCTAAAGA	0.0103
ACCTCGGA	-0.0884
TAGGGACA	0.0305
AGCTACAG	-0.122
CTAAACTC	-0.013
GGTACTGA	-0.168
CACCATTA	0.0406
CTTAATTC	0.257

A few entries again (study 2):
Sequence	E-score
TACAGAAA	-0.147
CTCAAGAG	-0.272
